Results collected from several papers.
Lines come from different studies, so protocols differ. ± marks the error that the study gave.
MALT1: Mucosa-associated lymphoid tissue lymphoma translocation protein 1 (MALT1, Homo sapiens, UniProt Q9UDY8)
MIPEP: Mitochondrial intermediate peptidase (MIPEP, Homo sapiens, UniProt Q99797)

Sequences of proteins named here, by UniProt entry; tags and fusion partners are left off. Residues count along the entry.
UniProt Q9UDY8, whole entry: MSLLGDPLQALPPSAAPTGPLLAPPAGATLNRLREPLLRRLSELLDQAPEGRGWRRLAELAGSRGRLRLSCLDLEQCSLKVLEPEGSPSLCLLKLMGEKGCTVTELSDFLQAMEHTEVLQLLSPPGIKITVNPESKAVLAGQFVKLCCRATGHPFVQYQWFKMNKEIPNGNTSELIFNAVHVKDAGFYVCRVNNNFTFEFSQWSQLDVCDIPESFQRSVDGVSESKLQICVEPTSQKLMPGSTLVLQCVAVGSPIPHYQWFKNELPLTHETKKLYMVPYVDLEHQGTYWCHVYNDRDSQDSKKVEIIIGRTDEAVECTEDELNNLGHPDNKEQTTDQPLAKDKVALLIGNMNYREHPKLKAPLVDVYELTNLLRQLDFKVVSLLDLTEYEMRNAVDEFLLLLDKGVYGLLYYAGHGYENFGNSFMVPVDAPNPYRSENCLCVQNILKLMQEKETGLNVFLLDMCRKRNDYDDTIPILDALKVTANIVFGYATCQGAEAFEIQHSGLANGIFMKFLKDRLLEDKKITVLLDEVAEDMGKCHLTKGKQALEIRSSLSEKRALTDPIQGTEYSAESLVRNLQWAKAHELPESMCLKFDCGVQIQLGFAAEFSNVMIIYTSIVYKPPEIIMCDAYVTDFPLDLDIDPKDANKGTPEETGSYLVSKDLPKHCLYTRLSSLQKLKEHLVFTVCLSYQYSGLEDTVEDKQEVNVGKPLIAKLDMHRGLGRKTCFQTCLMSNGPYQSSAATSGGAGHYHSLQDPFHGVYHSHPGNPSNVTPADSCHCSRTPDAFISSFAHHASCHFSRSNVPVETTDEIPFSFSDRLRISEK
UniProt Q99797, 36-713 limits assumed: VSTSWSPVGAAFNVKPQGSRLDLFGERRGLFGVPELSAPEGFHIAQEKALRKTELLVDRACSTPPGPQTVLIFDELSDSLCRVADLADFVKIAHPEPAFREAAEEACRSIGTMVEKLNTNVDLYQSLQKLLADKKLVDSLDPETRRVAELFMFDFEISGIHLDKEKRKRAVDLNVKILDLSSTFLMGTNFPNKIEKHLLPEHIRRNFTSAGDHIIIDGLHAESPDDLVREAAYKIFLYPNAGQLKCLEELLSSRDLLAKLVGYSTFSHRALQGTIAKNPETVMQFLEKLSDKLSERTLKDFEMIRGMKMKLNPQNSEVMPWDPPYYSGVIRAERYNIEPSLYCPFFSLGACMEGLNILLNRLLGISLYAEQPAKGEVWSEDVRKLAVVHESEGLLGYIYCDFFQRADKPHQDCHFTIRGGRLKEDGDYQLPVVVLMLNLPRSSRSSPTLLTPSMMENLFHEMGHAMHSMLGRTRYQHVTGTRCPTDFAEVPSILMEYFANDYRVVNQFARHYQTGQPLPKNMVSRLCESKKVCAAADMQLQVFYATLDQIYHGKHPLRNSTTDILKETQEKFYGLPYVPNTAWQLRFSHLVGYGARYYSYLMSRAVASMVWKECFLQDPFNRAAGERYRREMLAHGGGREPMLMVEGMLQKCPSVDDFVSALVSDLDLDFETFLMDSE
UniProt Q8IXJ6, whole entry: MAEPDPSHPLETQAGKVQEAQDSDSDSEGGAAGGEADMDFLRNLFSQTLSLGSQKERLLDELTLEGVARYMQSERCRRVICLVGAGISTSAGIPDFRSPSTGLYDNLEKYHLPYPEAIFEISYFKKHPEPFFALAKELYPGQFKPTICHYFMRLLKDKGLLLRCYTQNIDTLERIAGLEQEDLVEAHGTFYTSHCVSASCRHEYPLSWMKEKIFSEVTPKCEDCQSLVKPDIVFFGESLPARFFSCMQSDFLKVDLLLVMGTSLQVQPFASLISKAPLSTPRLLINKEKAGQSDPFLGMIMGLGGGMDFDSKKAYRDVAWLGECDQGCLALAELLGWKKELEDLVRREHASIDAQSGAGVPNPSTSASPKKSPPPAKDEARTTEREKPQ
UniProt Q9UBN7, whole entry: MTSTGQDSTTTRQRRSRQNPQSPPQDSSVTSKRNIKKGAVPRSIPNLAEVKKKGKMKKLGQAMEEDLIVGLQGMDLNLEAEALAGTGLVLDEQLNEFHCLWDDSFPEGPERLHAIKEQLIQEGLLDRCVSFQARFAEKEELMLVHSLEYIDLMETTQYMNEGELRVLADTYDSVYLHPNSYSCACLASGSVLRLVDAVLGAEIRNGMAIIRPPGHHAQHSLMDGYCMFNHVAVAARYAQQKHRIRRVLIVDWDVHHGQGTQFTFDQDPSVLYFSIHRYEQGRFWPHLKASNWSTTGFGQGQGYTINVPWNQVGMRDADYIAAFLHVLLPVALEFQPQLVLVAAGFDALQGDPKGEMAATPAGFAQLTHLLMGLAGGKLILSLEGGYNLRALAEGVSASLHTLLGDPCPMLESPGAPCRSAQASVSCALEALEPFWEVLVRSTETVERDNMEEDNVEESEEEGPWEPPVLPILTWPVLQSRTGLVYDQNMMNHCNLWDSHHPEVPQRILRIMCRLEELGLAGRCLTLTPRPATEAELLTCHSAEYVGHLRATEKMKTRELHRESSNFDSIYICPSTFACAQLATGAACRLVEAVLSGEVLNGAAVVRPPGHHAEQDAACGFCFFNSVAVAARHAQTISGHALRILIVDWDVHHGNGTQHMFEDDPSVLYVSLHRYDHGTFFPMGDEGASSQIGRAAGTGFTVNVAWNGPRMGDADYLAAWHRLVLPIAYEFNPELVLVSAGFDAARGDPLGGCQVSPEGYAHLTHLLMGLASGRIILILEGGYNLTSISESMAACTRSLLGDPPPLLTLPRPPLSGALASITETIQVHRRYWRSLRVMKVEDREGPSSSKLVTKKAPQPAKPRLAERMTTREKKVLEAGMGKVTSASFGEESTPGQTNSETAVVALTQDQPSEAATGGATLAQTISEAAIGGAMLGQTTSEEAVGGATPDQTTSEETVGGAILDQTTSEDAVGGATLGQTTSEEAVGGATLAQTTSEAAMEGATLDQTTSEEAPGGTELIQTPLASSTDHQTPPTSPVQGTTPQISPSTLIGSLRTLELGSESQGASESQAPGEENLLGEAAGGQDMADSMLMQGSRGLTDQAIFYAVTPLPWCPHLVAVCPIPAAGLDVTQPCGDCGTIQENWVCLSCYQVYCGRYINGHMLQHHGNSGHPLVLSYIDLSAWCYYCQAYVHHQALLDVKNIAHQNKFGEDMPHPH
UniProt P45983, 1-384 isoform 3: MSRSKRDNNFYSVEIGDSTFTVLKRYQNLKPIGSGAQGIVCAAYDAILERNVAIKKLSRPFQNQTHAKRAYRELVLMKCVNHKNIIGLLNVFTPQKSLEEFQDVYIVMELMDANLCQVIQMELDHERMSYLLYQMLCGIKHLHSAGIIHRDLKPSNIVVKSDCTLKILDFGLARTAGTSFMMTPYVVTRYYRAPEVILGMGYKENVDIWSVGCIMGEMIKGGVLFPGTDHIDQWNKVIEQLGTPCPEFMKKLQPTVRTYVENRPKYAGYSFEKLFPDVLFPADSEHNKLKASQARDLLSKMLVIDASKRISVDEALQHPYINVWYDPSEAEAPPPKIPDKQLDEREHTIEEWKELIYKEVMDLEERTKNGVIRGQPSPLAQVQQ
UniProt P17706, whole entry: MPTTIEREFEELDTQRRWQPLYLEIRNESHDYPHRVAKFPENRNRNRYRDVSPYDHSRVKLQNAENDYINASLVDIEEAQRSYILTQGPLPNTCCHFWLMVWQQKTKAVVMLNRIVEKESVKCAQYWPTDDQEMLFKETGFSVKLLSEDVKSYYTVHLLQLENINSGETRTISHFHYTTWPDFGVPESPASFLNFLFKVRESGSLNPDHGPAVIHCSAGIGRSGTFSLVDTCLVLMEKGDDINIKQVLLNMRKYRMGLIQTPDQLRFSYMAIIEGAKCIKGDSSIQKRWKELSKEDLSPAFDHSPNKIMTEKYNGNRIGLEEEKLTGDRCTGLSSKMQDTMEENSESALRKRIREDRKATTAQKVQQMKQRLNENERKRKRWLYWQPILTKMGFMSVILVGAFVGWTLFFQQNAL
UniProt Q9BY41, whole entry: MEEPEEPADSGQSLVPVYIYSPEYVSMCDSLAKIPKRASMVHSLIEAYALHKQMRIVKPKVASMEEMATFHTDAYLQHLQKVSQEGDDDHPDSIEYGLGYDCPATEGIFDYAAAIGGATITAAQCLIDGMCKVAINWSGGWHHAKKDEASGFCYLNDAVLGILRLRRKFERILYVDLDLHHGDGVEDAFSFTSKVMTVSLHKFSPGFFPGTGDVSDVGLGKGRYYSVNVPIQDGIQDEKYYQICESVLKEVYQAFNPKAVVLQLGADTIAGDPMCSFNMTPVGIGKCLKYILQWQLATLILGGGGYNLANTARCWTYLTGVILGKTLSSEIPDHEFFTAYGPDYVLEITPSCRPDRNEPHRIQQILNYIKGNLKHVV
UniProt O60502, whole entry: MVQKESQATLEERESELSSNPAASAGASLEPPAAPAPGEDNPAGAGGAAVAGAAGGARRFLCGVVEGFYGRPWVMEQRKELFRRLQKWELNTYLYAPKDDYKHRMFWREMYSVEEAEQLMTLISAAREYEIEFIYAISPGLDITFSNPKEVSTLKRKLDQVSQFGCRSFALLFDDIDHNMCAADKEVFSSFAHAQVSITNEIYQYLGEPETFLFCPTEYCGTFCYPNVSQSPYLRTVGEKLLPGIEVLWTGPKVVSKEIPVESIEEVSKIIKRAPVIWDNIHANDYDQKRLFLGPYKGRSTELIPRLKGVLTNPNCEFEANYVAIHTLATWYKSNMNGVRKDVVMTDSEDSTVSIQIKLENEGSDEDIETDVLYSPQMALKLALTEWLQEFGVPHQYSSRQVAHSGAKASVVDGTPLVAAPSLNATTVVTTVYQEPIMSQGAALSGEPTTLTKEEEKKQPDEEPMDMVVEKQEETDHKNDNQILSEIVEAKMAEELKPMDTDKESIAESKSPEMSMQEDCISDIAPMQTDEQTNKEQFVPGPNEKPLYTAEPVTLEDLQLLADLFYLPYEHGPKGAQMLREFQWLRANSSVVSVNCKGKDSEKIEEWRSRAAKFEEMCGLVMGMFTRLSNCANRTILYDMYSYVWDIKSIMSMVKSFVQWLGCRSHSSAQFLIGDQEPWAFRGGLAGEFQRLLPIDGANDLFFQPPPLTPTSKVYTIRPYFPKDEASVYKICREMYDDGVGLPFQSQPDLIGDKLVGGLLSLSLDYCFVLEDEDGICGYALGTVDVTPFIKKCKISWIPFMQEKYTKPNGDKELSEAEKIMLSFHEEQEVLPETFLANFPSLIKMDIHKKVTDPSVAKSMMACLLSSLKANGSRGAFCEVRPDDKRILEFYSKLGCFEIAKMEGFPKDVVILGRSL

The selectivity index of `CCn1nccc1N=CC1=Cc2cc3c(cc2[C@@H](c2cc(OC)c(OC)c(OC)c2)[C@@H]1C(=O)OC)OCO3` is reported as over 3.9 (Leishmania infantum; Alamar Blue; HepG2; relative to: CC50 HepG2 over EC50 amastigotes).
The Km of `Cc1cc(=O)oc2cc(NC(=O)[C@H](Cc3ccc(O)cc3)NC(=O)[C@@H](NC(=O)[C@H](CC(C)C)NC(=O)[C@H](CC(C)C)NC(=O)CCC(=O)O)C(C)C)ccc12` is reported as 8.4 ± 1.3 µM (Proteasome Macropain subunit MB1 (PSMB5, Homo sapiens, UniProt P28074); chymotrypsin-like activity, substrate; pH 7.8, 37 °C, added: oligomeric Aβ(1-42) 0.5 µM).
With `CC(=O)N[C@@H](CCC(N)=O)C(=O)N[C@H](C(=O)N[C@@H](C)C(=O)N[C@@H](CCCNC(=N)N)C(=O)N[C@@H](CCCCNC(=O)CCc1ccc(N=Nc2ccc(N(C)C)cc2)cc1)C(=O)N[C@@H](CO)C(=O)N[C@H](C(=O)NCC(=O)NCC(=O)NCCCNC(=S)Nc1ccc2c(c1)C(=O)OC21c2ccc(O)cc2Oc2cc(O)ccc21)[C@@H](C)O)[C@@H](C)O` the Km was 0.52 ± 0.059 µM (NAD-dependent protein deacetylase sirtuin-2 (SIRT2, Homo sapiens, UniProt Q8IXJ6); enzyme activity, substrate, plate reader kinetics).
`CC(=O)NCCCC[C@H](NC(=O)CNC(=O)[C@H](CCCNC(=N)N)NC(C)=O)C(N)=O` has a Km of 600 ± 200 µM (Protein deacetylase HDAC6 (HDAC6, Homo sapiens, UniProt Q9UBN7); substrate; 25 °C).
For `COC(=O)[C@@]1(C)C=C(C(=O)Nc2cccc(C(=O)NC34CC(Nc5nccc(-c6cccnc6)n5)(C3)C4)c2)C(=O)CC1`, the remaining activity was 0.166 fraction of control (Mitogen-activated protein kinase 8 (MAPK8, Homo sapiens, UniProt P45983); kinase activity, inhibitor; 0.1829 µM, added: 10 mM GSH).
`COc1cc([C@@H]2c3cc4c(cc3[C@H](C=C(C)C)[C@H]3COC(=O)[C@H]23)OCO4)cc(OC)c1OC` gave an EC50 of 7.4 ± 0.4 µM (Leishmania infantum; iRFP fluorescence; mouse splenocytes infected, amastigote, iRFP, ex vivo splenic explant; 48 h).
`CC(=O)N[C@@H](CC(C)C)C(=O)N[C@@H](CCCNC(=N)N)C(=O)N[C@@H](CO)C(=O)N[C@@H](CCCNC(=N)N)C(=O)Nc1ccc2c(C(F)(F)F)cc(=O)oc2c1` gave a Km of 37.4 µM (MALT1; substrate, fluorogenic peptide hydrolysis; 20 min preincubation, pH 7.5, 37 °C, enzyme 399 nM, citrate 0.9 M).
The Km of `CC(C)C[C@H](NC(=O)[C@@H]1CCCN1C(=O)[C@H](CCC(N)=O)NC(=O)CNC(=O)[C@H](CO)NC(=O)[C@H](CCCNC(=N)N)NC(=O)[C@H](Cc1ccccc1)NC(=O)[C@H](CC(N)=O)NC(=O)[C@H](CCCNC(=N)N)NC(=O)[C@@H](NC(=O)c1ccccc1N)C(C)C)C(=O)N[C@@H](CCC(N)=O)C(=O)N[C@@H](CC(N)=O)C(=O)N[C@@H](CCCCN)C(=O)N[C@H](C(=O)N[C@@H](CCC(N)=O)C(=O)NCCNc1ccc([N+](=O)[O-])cc1[N+](=O)[O-])C(C)C` is reported as 1.8 µM (MIPEP; substrate, FRET peptide hydrolysis).
`CC(=O)N[C@H](C(=O)N[C@@H](Cc1ccccc1)C(=O)N[C@@H](CC(=O)O)C(=O)N[C@@H](CCC(N)=O)C(=O)N[C@@H](Cc1cc(=O)oc2cc(OP(=O)(O)O)ccc12)C(=O)N[C@@H](Cc1c[nH]cn1)C(=O)N[C@@H](CCC(=O)O)C(=O)N[C@@H](CO)C(=O)N1CCC[C@H]1C(N)=O)C(C)C` has a Km of 280 ± 30 µM (Tyrosine-protein phosphatase non-receptor type 2 (PTPN2, Homo sapiens, UniProt P17706); peptide hydrolysis, substrate).
`CC(C)C[C@H](NC(=O)[C@@H]1CCCN1C(=O)[C@H](CCC(N)=O)NC(=O)c1ccccc1N)C(=O)N[C@@H](CCC(N)=O)C(=O)N[C@@H](CC(N)=O)C(=O)N[C@@H](CCCCN)C(=O)N[C@H](C(=O)N[C@@H](CCC(N)=O)C(=O)NCCNc1ccc([N+](=O)[O-])cc1[N+](=O)[O-])C(C)C` gave a Km of 2.9 µM (MIPEP; substrate, FRET peptide hydrolysis).
The Km of `CC(=O)NCCCC[C@H](NC(C)=O)C(=O)N[C@@H](Cc1c[nH]c2ccccc12)C(N)=O` is reported as over 5000 µM (Histone deacetylase 8 (HDAC8, Homo sapiens, UniProt Q9BY41); substrate; 25 °C).
For `CC(=O)N[C@@H](CC(C)C)C(=O)N[C@@H](CCCNC(=N)N)C(=O)N[C@@H](CO)C(=O)N[C@@H](CCCNC(=N)N)C(=O)Nc1ccc2c(C)cc(=O)oc2c1`, the Km was 34.5 µM (MALT1; substrate, fluorogenic peptide hydrolysis; 20 min preincubation, pH 7.5, 37 °C, enzyme 399 nM, citrate 0.9 M).
For `CC(=O)N[C@H]1[C@H](OC[C@H](NC(=O)[C@H](Cc2c[nH]cn2)NC(C)=O)C(=O)NCC(N)=O)O[C@H](CO)[C@@H](O)[C@@H]1O`, the Km was 525 ± 13 µM (Protein O-GlcNAcase (OGA, Homo sapiens, UniProt O60502); substrate; pH 7.5, 37 °C, added: 4MU-GlcNAc 200 µM competition).
